Measurements collected from several papers.
Compare with care: the assays were run in different laboratories. ± gives the spread as reported.
Technique: steady-state kinetics
B1: protein (Shewanella denitrificans, UniProt Q12KT8); chain MIHKLADVQSQNIGDNTKVWQFCVILAGAVIGRNCNICANSLIENDVVIGDNVTIKSGVQIWDGIHIQDDVFIGPNVTFTNDKQPRSKIYPDEYLKTIVKKGASIGANSTILPGILIGENAMVGAGAVITKNVPDNAIVIGNPGRITGYVEANTGVIMPSNNFELKLQMSKVKGVSLHKFHLVNDLRGNLSVGEFEKDIPFTPKRYFTVFGVPNKEVRGEHAHKECKQFLICVSGNCSVLVDDGENREEYVLDSIDKGIYLPPMTWGVQYKYSKDAVLLVFASHYYDSDDYIRDYSTFKQMRQN
B2: Tcur_2987 W263S (Thermomonospora curvata, UniProt D1A807); chain ACSEERAAGARPSATQTTGTATEPFHGPHQAGIATPPQAHAVFLGLDLRKGTGRKELGRLMRLLTDDARRLTQGRPALADPEPDLAPLPSRLTFTFGFGPGLFKAAGLEKQRPEGLRPLPPFKVDRLEDRWSGGDLLVQICCDDPITLAHALRMTVKDARAFTRVRWVQRGFRRSPGVQSSGATQRNLMGQLDGTVNPVPGTADFDQAVWVQDGPEWLRGGTTLVLRRIRMELEKSDEADPAGKEFAVGRRLTSGAPLTGRHEHDEPDFDAVDSAGFPVIAENAHIRLAHVDSPRLRMLRRPYNYDEGLTADGRSDAGLLFAAYQADIDRQFIPVQRRLDEGGDLLNLWTTPIGSAVFAIPPGCDENGWIGQGLLG
B3: enzyme (UniProt A0A2T5C445); chain MKSKQLNTDLFKVQAKQQIRLKNYDPASCNGFANRKEAEHQLKQDIKELADLQYQLYAENKRSVLIVFQAMDAAGKDGSIRHVFSGLNPQGCKVYSFKSPSANELDHDYLWRHYNKLPPRGEIGIFNRSHYENVLITRVHPEFLLNENLPDVHATNDITTEFWERRYRQIRDFEQTLTENGTTIIKFFLHLSKDEQKKRFMERIRKPAKNWKFSSADIRERQYWDDYQHAYEQAMRATSTEEAPWYIIPADNKWFTHVAIGNIIVETLQQMNIQMPEISSEEKDALKKAKKKLQNE
B4: asnB E349A (Escherichia coli, UniProt P22106); chain CSIFGVFDIKTDAVELRKKALELSRLMRHRGPDWSGIYASDNAILAHERLSIVDVNAGAQPLYNQQKTHVLAVNGEIYNHQALRAEYGDRYQFQTGSDCEVILALYQEKGPEFLDDLQGMFAFALYDSEKDAYLIGRDHLGIIPLYMGYDEHGQLYVASEMKALVPVCRTIKEFPAGSYLWSQDGEIRSYYHRDWFDYDAVKDNVTDKNELRQALEDSVKSHLMSDVPYGVLLSGGLDSSIISAITKKYAARRVEDQERSEAWWPQLHSFAVGLPGSPDLKAAQEVANHLGTVHHEIHFTVQEGLDAIRDVIYHIETYDVTTIRASTPMYLMSRKIKAMGIKMVLSGAGSDEVFGGYLYFHKAPNAKELHEETVRKLLALHMYDCARANKAMSAWGVEARVPFLDKKFLDVAMRINPQDKMCGNGKMEKHILRECFEAYLPASVAWRQKEQFSDGVGYSWIDTLKEVAAQQVSDQQLETARFRFPYNTPTSKEAYLYREIFEELFPLPSAAECVPGGPSVACSSAKAIEWDEAFKKMDDPSGRAVGVHQSAYK
B5: enzyme (Levilactobacillus brevis, UniProt Q03Q85); chain MKVTVVGCTHAGTFAIKQILAEHPDAEVTVYERNDVISFLSCGIALYLGGKVADPQGLFYSSPEELQKLGANVQMNHNVLAIDPDQKTVTVEDLTNHAQTTESYDKLVMTSGSWPIVPKIPGIDSDRVKLCKNWAHAQALIEDAKEAKRITVIGAGYIGAELAEAYSTTGHDVTLIDAMARVMPKYFDADFTDVIEQDYRDHGVQLALGETVESFTDSATGLTIKTDKNSYETDLAILCIGFRPNTDLLKGKVDMAPNGAIITDDYMRSSNPDIFAAGDSAAVHYNPTHQNAYIPLATNAVRQGILVGKNLVKPTVKYMGTQSSSGLALYDRTIVSTGLTLAAAKQQGLNAEQVIVEDNYRPEFMPSTEPVLMSLVFDPDTHRILGGALMSKYDVSQSANTLSVCIQNENTIDDLAMVDMLFQPNFDRPFNYLNILAQAAQAKVAQSVNA
B6: putA G1011P (Rhodobacter capsulatus, UniProt D5AN87); chain MTDLSALGPKAKFAPEAEVLQALVAQAALPQPQLDRIAARGADLVARIRAEAKPSLMEHFLAQYGLSTREGVALMCLAEAMLRVPDTATIDALIEDKIAPSDWGKHLGTAASSLVNASTWALMLTGKVLDDGAGGIAGTLRGAMRRLGEPVIRAAVGQAMREMGRQFVLGETIEKALERAEKREAEGYTFSYDMLGEAALTAADAERYRLAYAQAITAIGKAATRGSIAANPGISIKLSALHPRYEVAQEARVMAELVPVVRDLARAAARAGIALHIDAEEQDRLALSLRVMAAVIADPETAGWEGFGAVVQAYGKRAGAAIDALAAMARAAGRRINIRLVKGAYWDAEMKRAQVEGHPGFPLFTSKTGTDVAYICLAAKLFGLNDCIYPQFATHNAHTVAAVLEMAAGRPFEFQRLHGMGARLHDIVLRETGGRCRIYAPVGAHRDLLAYLVRRLLENGANSSFVNQIVNESVPPAEVAACPFAALPTARAPRGLLAPADLFGAGRVNAQGFDLSDPEVLARIEAARDVTLPDAAPIVAGPVSGTLRPVRNPATGAVVAQVTEADAATVALALDAAQVWSAPAATRAAVLCRAADLYEENFGPIFAALAQEAGKTLGDAVSELREAVDFLRYYAAEGAADTRPPRGAVVAISPWNFPLAIFTGQVAAALMAGNAVLAKPAEQTPIIAALAVRLLHQAGVPETALQLLPGDGPTVGAALTRDPRVAGVVFTGSTETAQIIARAMAAHLAPGTPLIAETGGLNAMVVDSTALPEQAVRDVVASAFRSAGQRCSALRCLYVQDDIAPHLIGMLKGAMEELVSGDPARLSTDVGPVIDAEAKAGIETYLAANKARILHRSTAPEGGHFVAPALLQVGGIADLEREIFGPVLHLATFAAEDLPAVIAAINARGYGLTFGLHSRIDARVETVAETIRAGNIYVNRNQIGAVVGSQPFGGEGLSGTGPKAGGPLYLNRFYAPEPVVAVGGWTEAATPILPEARETQLDEIFLPGPTPELNRLTRHQRGPILCLGPGAEAASAQAAAVVALGGQAVQASGAVSPKALETLTPLAGVLWWGAAEMGRAYAQALAVRPGPLVPLITAKPDLAHVAHERHLCVDTTAAGGNAALLAG
B7: enzyme (Brachypodium distachyon, UniProt I1IPY7); chain MEQGKAALGWAARDASGHLSPYNFSRRVQKDDDVTIKVLFCGICHTDLHIIKNEWGNALYPIVPGHEVVGVVTDVGPGVKNFKAGETVGVGYFLDSCRTCDSCSKGHENYCPTLVLTSNGVDYDGATTQGGFSDVVVVNQDYVVRVPDTLPPDGAAPLLCAGVTVYSPMMQYGLNAPGKHLGVVGLGGLGHMAVKFGKAFGMKVTVISSSLRKREEALDRLGADDFLVSSDAEQMKAAAGAMDGIIDTVSAGHPIVPLLELLRPMGQMVVCGAPSEPLQLPAYAVITGGKRIAGNGVGSVRDCQAMLDFAGEHGITADVEVVKMDYVNTAVERLERNDVRYRFVIDVAGSLQQGGAA
B8: BaiA1 (Clostridium scindens, UniProt P07914); chain MKLVQDKITIITGGTRGIGFAAAKLFIENGAKVSIFGETQEEVDTALAQLKELYPEEEVLGFAPDLTSRDAVMAAVGTVAQKYGRLDVMINNAGITMNSVFSRVSEEDFKNIMDINVNGVFNGAWSAYQCMKDAKQGVIINTASVTGIYGSLSGIGYPTSKAGVIGLTHGLGREIIRKNIRVVGVAPGVVDTDMTKGLPPEILEDYLKTLPMKRMLKPEEIANVYLFLASDLASGITATTISVDGAYRP
B9: enzyme (Thermobifida fusca, UniProt Q47RK4); chain MTDVYILDAVRTPFGRYGGALSGIRPDDLAAHVLRALAERSPGLDPAAVDDVFFGDANGAGEDNRNVARMAALLAGWPTSVPGVTLNRLCGSGMESVIAANRAIAVGDASLAVAGGVESMSRAPWVLPKPAQGFPTGHETLYSTTLGWRMVNPAMPEQWTVSLGESTEQVAATYGISRAEQDAFALRSHERAARAWAEGVFDAEITQIPGAELERDESIRETSAEKLAALKPAFRPDGTITAGNASPLNDGAAALLIGDAAAAERVGREPLARIVSRGVAAVDPDVFGIGPVQAAEIALRRAGIGWDDLSVVELNEAFAAQSLACLKLWPDLDPEIVNPNGGAIAIGHPLGASGARIVGTLAHELHRRGGGWGLAAICIGVGQGLAVVLHR
B10: Paox H64A (Mus musculus, UniProt Q8C0L6); chain MAFPGPRVLVVGSGIAGLGAAQKLCSHRAAPHLRVLEATASAGGRIRSERCFGGVVELGAHWIAGPSQDNPVFQLAAEFGLLGEKELSEENQLVDTGGHVALPSMIWSSSGTSVSLELMTEMARLFYGLIERTREFLNESETPMASVGEFLKKEISQQVASWTEDDEDTRKRKLAILNTFFNIECCVSGTHSMDLVALAPFGEYTVLPGLDCILAGGYQGLTDRILASLPKDTVAFDKPVKTIHWNGSFQEAAFPGETFPVLVECEDGARLPAHHVIVTVPLGFLKEHQDTFFEPPLPAKKAEAIKKLGFGTNNKIFLEFEEPFWEPDCQFIQVVWEDTSPLQDTALSLQDTWFKKLIGFLVQPSFESSHVLCGFIAGLESEFMETLSDEEVLLSLTQVLRRVTGNPQLPAAKSVRRSQWHSAPYTRGSYSYVAVGSTGDDLDLMAQPLPEDGTGTQLQVLFAGEATHRTFYSTTHGALLSGWREADRLVSLWDSQVEQSRPRL
B11: Tat (Mus musculus, UniProt Q8QZR1); chain WNVRPSDMSNKTFNPIRAIVDNMKVKPNPNKTVISLSIGDPTVFGNLPTDPEVTQAMKDALDSGKYNGYAPSIGYLSSREEVASYYHCPEAPLEAKDVILTSGCSQAIELCLAVLANPGQNILIPRPGFSLYRTLAESMGIEVKLYNLLPEKSWEIDLKQLESLIDEKTACLVVNNPSNPCGSVFSKRHLQKILAVAERQCVPILADEIYGDMVFSDCKYEPMATLSTNVPILSCGGLAKRWLVPGWRLGWILIHDRRDIFGNEIRDGLVKLSQRILGPCTIVQGALKSILQRTPQEFYQDTLSFLKSNADLCYGALSAIPGLQPVRPSGAMYLMVGIEMEHFPEFENDVEFTERLIAEQSVHCLPATCFEYPNFFRVVITVPEVMMLEACSRIQEFCEQHY
Sequence of UniProt Q9HJT3 (whole entry, looked up): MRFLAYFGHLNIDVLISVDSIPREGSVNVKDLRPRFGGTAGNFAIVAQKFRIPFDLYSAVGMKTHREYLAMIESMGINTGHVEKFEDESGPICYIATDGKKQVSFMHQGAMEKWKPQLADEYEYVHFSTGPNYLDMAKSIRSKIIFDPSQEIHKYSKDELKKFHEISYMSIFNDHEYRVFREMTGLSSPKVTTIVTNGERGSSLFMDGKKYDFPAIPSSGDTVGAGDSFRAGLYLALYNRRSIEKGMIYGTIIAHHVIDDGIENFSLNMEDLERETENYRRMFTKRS
Sequence of UniProt P49419 (whole entry, looked up): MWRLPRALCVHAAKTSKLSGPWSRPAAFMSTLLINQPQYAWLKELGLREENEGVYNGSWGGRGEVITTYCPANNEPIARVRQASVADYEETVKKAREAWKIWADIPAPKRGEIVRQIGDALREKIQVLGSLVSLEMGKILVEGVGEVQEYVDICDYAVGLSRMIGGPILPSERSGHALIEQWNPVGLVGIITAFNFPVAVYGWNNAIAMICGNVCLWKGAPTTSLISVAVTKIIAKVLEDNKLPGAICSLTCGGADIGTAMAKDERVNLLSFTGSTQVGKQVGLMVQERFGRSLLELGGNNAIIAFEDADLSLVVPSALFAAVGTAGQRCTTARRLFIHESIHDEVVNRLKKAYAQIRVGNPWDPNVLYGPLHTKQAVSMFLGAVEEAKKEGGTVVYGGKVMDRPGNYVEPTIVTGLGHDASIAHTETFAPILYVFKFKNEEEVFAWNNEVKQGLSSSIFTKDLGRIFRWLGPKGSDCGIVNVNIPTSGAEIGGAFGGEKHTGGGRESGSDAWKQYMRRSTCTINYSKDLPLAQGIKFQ
Sequence of UniProt E9AE57 (whole entry, looked up): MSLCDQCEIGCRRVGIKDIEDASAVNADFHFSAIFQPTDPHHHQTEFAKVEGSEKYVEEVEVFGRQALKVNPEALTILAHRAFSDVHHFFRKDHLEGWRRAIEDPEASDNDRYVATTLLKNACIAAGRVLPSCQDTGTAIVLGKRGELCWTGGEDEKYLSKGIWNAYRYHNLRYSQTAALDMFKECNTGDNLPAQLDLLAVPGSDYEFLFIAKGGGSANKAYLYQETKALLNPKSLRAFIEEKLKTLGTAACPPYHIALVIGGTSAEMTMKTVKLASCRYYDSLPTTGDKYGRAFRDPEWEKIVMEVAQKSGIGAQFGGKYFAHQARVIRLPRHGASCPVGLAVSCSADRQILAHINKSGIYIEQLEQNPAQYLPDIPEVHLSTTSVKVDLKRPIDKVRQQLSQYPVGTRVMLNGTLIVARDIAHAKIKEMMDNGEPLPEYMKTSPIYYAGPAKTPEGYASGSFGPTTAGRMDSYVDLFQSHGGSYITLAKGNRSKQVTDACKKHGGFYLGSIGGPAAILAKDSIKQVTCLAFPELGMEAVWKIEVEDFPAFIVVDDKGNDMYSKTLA

| Molecule | substrate | conditions | kcat/Km |
| --- | --- | --- | --- |
| TaNK (Thermoplasma acidophilum, UniProt Q9HJT3) | Nc1nc2c(ncn2[C@@H]2O[C@H](COP(=O)(O)OP(=O)(O)OP(=O)(O)O)[C@@H](O)[C@H]2O)c(=O)[nH]1 | pH 8, 22 °C, apparent, together with: inosine, Mg2+ | 1440 ± 84 M⁻¹ s⁻¹ |
| B1 (protein) | Cc1cn([C@H]2C[C@H](O)[C@@H](COP(=O)(O)OP(=O)(O)O[C@H]3O[C@H](C)[C@@H](O)[C@H](N)[C@H]3O)O2)c(=O)[nH]c1=O | pH 8.5, together with: acetyl-CoA 2 mM | 72000 M⁻¹ s⁻¹ |
| B2 (Tcur_2987 W263S) | Nc1c(S(=O)(=O)O)cc(Nc2cccc(S(=O)(=O)CCOS(=O)(=O)O)c2)c2c1C(=O)c1ccccc1C2=O | pH 3, sigmoidal kinetics, together with: H2O2 1 mM | 1.6e+06 M⁻¹ s⁻¹ |
| B3 (enzyme) | Nc1ncnc2c1ncn2[C@@H]1O[C@H](COP(=O)(O)O)[C@@H](O)[C@H]1O | pH 8, 30 °C | 33000 M⁻¹ s⁻¹ |
| B4 (asnB E349A) | NC(=O)CC[C@H](N)C(=O)O | pH 8, 37 °C, 100 mM NaCl, glutaminase site, together with: MgCl2; no ATP | 1100 M⁻¹ s⁻¹ |
| pyc (Rhizobium etli, UniProt Q2K340) | Nc1ncnc2c1ncn2[C@@H]1O[C@H](COP(=O)(O)OP(=O)(O)OP(=O)(O)O)[C@@H](O)[C@H]1O | pH 7.8, 30 °C, no pyruvate, together with: NaHCO3 20 mM, acetyl CoA 0.25 mM, Mg2+ 5 mM | 6860 M⁻¹ s⁻¹ |
| B5 (enzyme) | NC(=O)C1=CN([C@@H]2O[C@H](COP(=O)(O)OP(=O)(O)OC[C@H]3O[C@@H](n4cnc5c(N)ncnc54)[C@H](O)[C@@H]3O)[C@@H](O)[C@H]2O)C=CC1 | pH 7.5, 37 °C, per site | 9.3e+06 ± 500000 M⁻¹ s⁻¹ |
| B6 (putA G1011P) | O=C(O)[C@@H]1CCCN1 | pH 8, 23 °C | 2200 ± 840 M⁻¹ s⁻¹ |
| protein (Enterobacter lignolyticus, UniProt E3G9I4) | CCn1c(=NN=c2sc3cc(S(=O)(=O)O)ccc3n2CC)sc2cc(S(=O)(=O)O)ccc21 | pH 3.5, 25 °C, together with: H2O2 | 5.8e+06 ± 100000 M⁻¹ s⁻¹ |
| B7 (enzyme) | NC(=O)c1ccc[n+]([C@@H]2O[C@H](COP(=O)(O)OP(=O)(O)OC[C@H]3O[C@@H](n4cnc5c(N)ncnc54)[C@H](OP(=O)(O)O)[C@@H]3O)[C@@H](O)[C@H]2O)c1 | pH 8.8, 23 °C, cofactor varied | 79000 M⁻¹ s⁻¹ |
| B8 (BaiA1) | NC(=O)c1ccc[n+]([C@@H]2O[C@H](COP(=O)(O)OP(=O)(O)OC[C@H]3O[C@@H](n4cnc5c(N)ncnc54)[C@H](O)[C@@H]3O)[C@@H](O)[C@H]2O)c1 | pH 8.7, 37 °C, cofactor varied, together with: glycocholic acid 1.4 mM | 17700 M⁻¹ s⁻¹ |
| B9 (enzyme) | CC(=O)SCCNC(=O)CCNC(=O)[C@H](O)C(C)(C)COP(=O)(O)OP(=O)(O)OC[C@H]1O[C@@H](n2cnc3c(N)ncnc32)[C@H](O)[C@@H]1OP(=O)(O)O | pH 7.4, 37 °C | 1.5 M⁻¹ s⁻¹ |
| enzyme (Leishmania major, UniProt E9AE57) | O=C(O)C[C@H](O)C(=O)O | – | 47000 ± 3000 M⁻¹ s⁻¹ |
| ALDH7A1 (Homo sapiens, UniProt P49419) | N[C@@H](CCCC=O)C(=O)O | pH 8, 20 °C, together with: NAD+ 2.5 mM | 3600 ± 4800 M⁻¹ s⁻¹ |
| B10 (Paox H64A) | c1ccc(CNCCCCNCc2ccccc2)cc1 | pH 8.6, 30 °C | 600 ± 100 M⁻¹ s⁻¹ |
| B11 (Tat) | N[C@@H](Cc1ccccc1)C(=O)O | pH 7, 38 °C, 100 mM phosphate, together with: 10 mM KGA; PLP | 1330 M⁻¹ s⁻¹ |
